Published values of several laboratories.
Protocols differ between the studies behind these lines. Numbers after ± are the reported error.
UniProt P50391, sequence (whole entry, looked up): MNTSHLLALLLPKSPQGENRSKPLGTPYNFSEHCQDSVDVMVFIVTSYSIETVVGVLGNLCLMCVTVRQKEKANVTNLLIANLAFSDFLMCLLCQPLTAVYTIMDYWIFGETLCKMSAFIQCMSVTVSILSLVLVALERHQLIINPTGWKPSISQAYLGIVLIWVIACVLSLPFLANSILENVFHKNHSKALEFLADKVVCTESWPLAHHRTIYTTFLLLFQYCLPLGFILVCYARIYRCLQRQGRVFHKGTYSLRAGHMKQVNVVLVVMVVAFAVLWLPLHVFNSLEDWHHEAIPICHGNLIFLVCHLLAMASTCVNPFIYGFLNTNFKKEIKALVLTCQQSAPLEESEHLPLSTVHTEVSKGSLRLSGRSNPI
UniProt P22303, sequence (whole entry, looked up): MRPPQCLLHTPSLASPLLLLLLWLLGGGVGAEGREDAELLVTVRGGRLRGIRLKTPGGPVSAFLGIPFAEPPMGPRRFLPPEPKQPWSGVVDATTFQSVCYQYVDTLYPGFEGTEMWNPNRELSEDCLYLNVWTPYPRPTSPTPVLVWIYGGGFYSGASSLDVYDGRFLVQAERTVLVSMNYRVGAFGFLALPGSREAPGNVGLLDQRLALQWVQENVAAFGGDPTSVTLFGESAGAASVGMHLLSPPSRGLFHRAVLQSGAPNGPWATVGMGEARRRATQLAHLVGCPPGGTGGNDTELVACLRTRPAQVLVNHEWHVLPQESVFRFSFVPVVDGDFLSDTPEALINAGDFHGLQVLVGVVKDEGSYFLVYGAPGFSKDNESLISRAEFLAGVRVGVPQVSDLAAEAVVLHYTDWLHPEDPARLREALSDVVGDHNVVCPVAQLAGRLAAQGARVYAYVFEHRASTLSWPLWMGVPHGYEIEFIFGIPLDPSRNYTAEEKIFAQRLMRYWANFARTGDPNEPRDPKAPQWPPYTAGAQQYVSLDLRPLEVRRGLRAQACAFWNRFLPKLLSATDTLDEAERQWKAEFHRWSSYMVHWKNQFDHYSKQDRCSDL
UniProt P98170, sequence (whole entry, looked up): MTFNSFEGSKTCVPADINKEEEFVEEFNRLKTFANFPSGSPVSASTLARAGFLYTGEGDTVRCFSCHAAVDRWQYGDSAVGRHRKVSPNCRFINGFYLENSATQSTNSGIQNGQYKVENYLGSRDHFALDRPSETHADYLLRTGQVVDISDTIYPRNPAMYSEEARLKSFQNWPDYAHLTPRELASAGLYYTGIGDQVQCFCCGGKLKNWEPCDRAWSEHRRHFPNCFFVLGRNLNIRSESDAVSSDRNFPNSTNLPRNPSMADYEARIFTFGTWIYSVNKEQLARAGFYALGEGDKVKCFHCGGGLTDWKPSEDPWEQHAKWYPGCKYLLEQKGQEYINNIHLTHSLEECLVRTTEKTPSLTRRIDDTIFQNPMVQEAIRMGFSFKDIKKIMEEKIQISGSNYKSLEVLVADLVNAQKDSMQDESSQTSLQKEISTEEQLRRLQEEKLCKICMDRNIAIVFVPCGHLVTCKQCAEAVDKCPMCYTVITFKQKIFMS
UniProt P50406, sequence (whole entry, looked up): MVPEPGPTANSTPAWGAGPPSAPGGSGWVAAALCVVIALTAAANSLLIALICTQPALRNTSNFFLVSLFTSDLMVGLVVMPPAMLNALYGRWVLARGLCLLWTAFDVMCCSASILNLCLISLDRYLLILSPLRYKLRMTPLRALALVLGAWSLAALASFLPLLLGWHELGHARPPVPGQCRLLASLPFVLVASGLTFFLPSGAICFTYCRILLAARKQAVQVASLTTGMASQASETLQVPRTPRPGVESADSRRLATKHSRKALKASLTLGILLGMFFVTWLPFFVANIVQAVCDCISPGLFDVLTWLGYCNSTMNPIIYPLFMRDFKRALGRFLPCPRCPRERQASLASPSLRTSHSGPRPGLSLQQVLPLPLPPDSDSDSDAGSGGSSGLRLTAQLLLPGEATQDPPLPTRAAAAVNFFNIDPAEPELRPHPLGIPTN
UniProt P52700, sequence (whole entry, looked up): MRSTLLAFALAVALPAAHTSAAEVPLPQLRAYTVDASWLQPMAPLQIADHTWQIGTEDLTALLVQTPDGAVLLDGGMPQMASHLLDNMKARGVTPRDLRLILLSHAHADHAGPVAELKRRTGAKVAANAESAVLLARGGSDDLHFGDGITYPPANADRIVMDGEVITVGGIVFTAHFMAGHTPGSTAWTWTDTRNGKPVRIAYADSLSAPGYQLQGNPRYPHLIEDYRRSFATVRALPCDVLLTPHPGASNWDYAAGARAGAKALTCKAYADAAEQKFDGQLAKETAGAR
UniProt P29322, sequence (whole entry, looked up): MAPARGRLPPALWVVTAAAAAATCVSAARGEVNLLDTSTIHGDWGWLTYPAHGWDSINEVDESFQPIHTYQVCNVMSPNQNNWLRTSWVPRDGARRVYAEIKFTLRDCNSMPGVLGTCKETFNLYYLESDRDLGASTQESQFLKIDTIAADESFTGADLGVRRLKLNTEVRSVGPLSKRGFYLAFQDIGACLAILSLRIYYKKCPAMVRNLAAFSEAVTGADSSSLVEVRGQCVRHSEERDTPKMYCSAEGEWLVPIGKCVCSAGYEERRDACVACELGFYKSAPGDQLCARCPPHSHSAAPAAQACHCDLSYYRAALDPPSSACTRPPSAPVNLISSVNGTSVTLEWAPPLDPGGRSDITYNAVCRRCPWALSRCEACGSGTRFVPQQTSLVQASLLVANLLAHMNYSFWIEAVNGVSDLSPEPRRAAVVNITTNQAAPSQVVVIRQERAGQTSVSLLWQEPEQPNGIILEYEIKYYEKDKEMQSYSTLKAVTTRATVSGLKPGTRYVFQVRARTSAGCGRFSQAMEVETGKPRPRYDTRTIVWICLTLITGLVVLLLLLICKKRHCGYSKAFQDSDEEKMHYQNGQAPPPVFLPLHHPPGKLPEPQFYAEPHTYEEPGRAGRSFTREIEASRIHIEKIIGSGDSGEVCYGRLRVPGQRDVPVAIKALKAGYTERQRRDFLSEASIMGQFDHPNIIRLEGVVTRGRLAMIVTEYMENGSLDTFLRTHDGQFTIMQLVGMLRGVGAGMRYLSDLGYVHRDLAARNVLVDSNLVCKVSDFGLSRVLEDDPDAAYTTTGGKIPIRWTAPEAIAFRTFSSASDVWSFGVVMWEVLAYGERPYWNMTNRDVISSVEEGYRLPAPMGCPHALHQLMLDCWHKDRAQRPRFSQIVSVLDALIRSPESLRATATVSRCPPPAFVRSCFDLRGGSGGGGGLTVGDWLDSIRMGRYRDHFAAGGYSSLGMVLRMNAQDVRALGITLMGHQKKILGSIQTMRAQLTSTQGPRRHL
UniProt O35795, sequence (whole entry, looked up): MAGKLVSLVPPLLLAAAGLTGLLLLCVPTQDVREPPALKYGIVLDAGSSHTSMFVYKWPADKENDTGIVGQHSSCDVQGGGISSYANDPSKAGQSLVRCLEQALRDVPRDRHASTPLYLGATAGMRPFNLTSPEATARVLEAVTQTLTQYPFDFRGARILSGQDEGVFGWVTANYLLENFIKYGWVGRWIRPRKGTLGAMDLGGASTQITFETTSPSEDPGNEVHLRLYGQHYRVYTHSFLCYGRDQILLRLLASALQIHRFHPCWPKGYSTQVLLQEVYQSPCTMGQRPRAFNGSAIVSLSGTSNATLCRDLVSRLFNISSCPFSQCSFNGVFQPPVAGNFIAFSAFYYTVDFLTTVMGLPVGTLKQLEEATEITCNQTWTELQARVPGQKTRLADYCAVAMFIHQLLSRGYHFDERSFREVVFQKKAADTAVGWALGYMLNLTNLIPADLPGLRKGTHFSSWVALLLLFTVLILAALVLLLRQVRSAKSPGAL
UniProt Q9NSD7, sequence (whole entry, looked up): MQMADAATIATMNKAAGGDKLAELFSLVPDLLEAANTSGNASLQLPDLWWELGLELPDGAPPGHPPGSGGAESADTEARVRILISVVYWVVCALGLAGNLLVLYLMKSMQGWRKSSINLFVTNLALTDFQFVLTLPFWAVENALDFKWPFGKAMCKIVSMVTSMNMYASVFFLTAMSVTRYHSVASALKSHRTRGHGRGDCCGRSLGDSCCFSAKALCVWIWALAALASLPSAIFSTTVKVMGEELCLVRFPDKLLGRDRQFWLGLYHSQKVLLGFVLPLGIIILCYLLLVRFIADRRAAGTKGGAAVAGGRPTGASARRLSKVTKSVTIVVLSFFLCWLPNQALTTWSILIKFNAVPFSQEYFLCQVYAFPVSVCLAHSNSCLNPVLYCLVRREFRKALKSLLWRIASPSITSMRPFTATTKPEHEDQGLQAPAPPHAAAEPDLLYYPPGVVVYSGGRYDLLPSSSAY
UniProt P08908, sequence (whole entry, looked up): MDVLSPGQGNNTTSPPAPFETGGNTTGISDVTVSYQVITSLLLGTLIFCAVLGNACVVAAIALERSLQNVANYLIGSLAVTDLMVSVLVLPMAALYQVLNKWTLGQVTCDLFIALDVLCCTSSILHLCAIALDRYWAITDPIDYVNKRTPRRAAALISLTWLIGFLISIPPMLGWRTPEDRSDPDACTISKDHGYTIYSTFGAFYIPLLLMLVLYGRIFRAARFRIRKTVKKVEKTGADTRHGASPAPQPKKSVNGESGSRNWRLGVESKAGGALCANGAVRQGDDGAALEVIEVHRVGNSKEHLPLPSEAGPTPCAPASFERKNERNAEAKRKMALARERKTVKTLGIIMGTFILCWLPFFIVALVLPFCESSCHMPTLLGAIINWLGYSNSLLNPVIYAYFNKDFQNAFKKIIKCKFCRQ
UniProt P33533, sequence (whole entry, looked up): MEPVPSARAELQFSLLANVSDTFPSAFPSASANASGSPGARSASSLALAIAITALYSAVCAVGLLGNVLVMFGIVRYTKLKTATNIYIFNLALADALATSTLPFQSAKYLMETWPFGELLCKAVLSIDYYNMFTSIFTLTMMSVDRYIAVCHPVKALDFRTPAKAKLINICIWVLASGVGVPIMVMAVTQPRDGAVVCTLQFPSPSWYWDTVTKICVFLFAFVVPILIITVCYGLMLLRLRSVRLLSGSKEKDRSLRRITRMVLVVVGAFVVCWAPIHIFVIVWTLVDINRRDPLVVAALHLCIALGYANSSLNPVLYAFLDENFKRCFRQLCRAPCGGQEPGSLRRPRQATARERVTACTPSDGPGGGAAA

Structure (SMILES) | tested on | test | test system | setting | endpoint | result
COc1ccc2ccc3c(c2c1)C=[N+]1C2CCCCC2[N+]2=Cc4ccc(OCCN5CCCCC5)cc4[O][Au-]21[O]3.F[P-](F)(F)(F)(F)F (stereo not shown) | Klebsiella pneumoniae thioredoxin reductase | competitive inhibitor | carbapenem-resistant | added: DTNB | Ki | 15.4 µM
CCN(CC)c1ncnc2c1ncn2[C@@H]1O[C@H](COP(=O)(O)OP(=O)(O)C(Br)(Br)P(=O)(O)O)[C@@H](O)[C@H]1O | Ectonucleoside triphosphate diphosphohydrolase 2 (Rattus norvegicus, UniProt O35795) | enzyme activity, inhibitor | – | – | Ki | ≥ 1000 µM
Cc1cc(O)cc(C)c1CC(N)C(=O)NC1CCNc2c(C)cc(Cc3ccccc3)cc21 (stereo not shown) | Oprd1 (Rattus norvegicus, UniProt P33533) | ligand displacement, radioligand | – | cell membranes | Ki | 0.0019 µM
CN1CCN(c2cccc3c2ccn3C(=O)c2ccccc2)CC1 | HTR6 (Homo sapiens, UniProt P50406) | ligand displacement, radioligand | – | cell membranes | Ki | 2.2 µM
CC[C@H](C)[C@@H]1NC(=O)[C@@H](NC(=O)[C@H](CCC(=O)O)NC(=O)[C@H](CCCNC(=N)N)NC(=O)CNC(=O)[C@H](CO)NC(=O)[C@H](CC(C)C)NC(=O)[C@H](CCCNC(=N)N)NC(=O)[C@@H](NC(=O)CNC(=O)[C@H](Cc2ccc(O)cc2)NC(=O)[C@@H]2CCCN2C(=O)[C@H](C)NC(=O)[C@H](C)NC(=O)[C@@H](N)CCCNC(=N)N)C(C)C)CSSC[C@@H](C(=O)N[C@H](C(=O)N[C@@H](Cc2ccccc2)C(=O)N[C@H](C(=O)N[C@@H](CO)C(=O)NCC(=O)NCC(=O)N[C@@H](CO)C(=O)N[C@@H](CCCNC(=N)N)C(=O)N[C@@H](Cc2c[nH]c3ccccc23)C(=O)O)[C@@H](C)O)[C@@H](C)CC)NC(=O)[C@H](C)NC(=O)[C@H](CCCNC(=N)N)NC1=O | RXFP3 (Homo sapiens, UniProt Q9NSD7) | ligand displacement | – | – | Ki | 1.58 µM
CSC[C@H]1CN(Cc2c[nH]c3c(N)ncnc23)C[C@@H]1O | MTA/SAH nucleosidase (Campylobacter jejuni subsp. jejuni, UniProt Z9IB28FKP7) | inhibitor | – | pH 7.4, 25 °C, added: MTA 1 mM | Ki | 0.0065 ± 0.0006 µM
CC1(CCN2CCc3ccccc3C2)Cc2cc(Cl)ccc2C1=O (single isomer, unassigned) | HTR1A (Homo sapiens, UniProt P08908) | ligand displacement, radioligand | – | – | Ki | 0.376 µM
CC(=O)N[C@@H](CCCNC(=N)N)C(=O)N[C@@H](Cc1ccc(O)cc1)C(=O)N[C@@H](CCCNC(=N)NC(=O)NCCCCN)C(=O)N[C@@H](CC(C)C)C(=O)N[C@@H](CCCNC(=N)N)C(=O)N[C@H](Cc1ccc(O)cc1)C(N)=O | NPY4R (Homo sapiens, UniProt P50391) | ligand displacement, radioligand | – | – | Ki | 0.724 µM
O=C(O)c1cccc(CP(=O)(O)O)n1 | Beta-lactamase L1 (Stenotrophomonas maltophilia, UniProt P52700) | enzyme activity, inhibitor | – | – | Ki | 0.5 µM
CNC(=O)C1CCN(c2ccccc2NC(=O)c2ccc(-c3cc(O)ccc3C)c(C)n2)CC1 | EPHA8 (Homo sapiens, UniProt P29322) | cell-free assay, TR-FRET | – | – | Ki | 0.0002 µM
CNC(C)C(=O)NC1COC2CCC(C(=O)NCc3ccccc3)N2C1=O (mixture of isomers) | E3 ubiquitin-protein ligase XIAP, BIR3 (XIAP, Homo sapiens, UniProt P98170) | ligand displacement, FP | – | – | Ki | > 39.1 µM
COc1cc2c(cc1OC)C(=O)C(=Cc1ccc(N3CCN(C)CC3)cc1)C2 | ACHE (Homo sapiens, UniProt P22303) | enzyme activity, inhibitor | – | – | Ki | 0.157 µM
CN[C@](C)(C[18F])C(=O)O | A549 tumour model | – | host not given, lung | 2 h, tumour-bearing | tracer uptake | 1.1 %ID/g

Repeated from above:
Structure (SMILES) | tested on | test | test system | setting | endpoint | result
CC[C@H](C)[C@@H]1NC(=O)[C@@H](NC(=O)[C@H](CCC(=O)O)NC(=O)[C@H](CCCNC(=N)N)NC(=O)CNC(=O)[C@H](CO)NC(=O)[C@H](CC(C)C)NC(=O)[C@H](CCCNC(=N)N)NC(=O)[C@@H](NC(=O)CNC(=O)[C@H](Cc2ccc(O)cc2)NC(=O)[C@@H]2CCCN2C(=O)[C@H](C)NC(=O)[C@H](C)NC(=O)[C@@H](N)CCCNC(=N)N)C(C)C)CSSC[C@@H](C(=O)N[C@H](C(=O)N[C@@H](Cc2ccccc2)C(=O)N[C@H](C(=O)N[C@@H](CO)C(=O)NCC(=O)NCC(=O)N[C@@H](CO)C(=O)N[C@@H](CCCNC(=N)N)C(=O)N[C@@H](Cc2c[nH]c3ccccc23)C(=O)O)[C@@H](C)O)[C@@H](C)CC)NC(=O)[C@H](C)NC(=O)[C@H](CCCNC(=N)N)NC1=O | RXFP3 (Homo sapiens, UniProt Q9NSD7) | ligand displacement | – | – | Ki | 1.58 µM
